Measured values collected from several papers.
Values joined by “and” are separate records of one study, mostly repeats; a detail may differ. ± marks the error that the study gave.
USP49 ZnF-UBD domain: Ubiquitin carboxyl-terminal hydrolase 49, ZnF-UBD domain (USP49, Homo sapiens, UniProt Q70CQ1)
UniProt Q70CQ1, sequence (whole entry, looked up): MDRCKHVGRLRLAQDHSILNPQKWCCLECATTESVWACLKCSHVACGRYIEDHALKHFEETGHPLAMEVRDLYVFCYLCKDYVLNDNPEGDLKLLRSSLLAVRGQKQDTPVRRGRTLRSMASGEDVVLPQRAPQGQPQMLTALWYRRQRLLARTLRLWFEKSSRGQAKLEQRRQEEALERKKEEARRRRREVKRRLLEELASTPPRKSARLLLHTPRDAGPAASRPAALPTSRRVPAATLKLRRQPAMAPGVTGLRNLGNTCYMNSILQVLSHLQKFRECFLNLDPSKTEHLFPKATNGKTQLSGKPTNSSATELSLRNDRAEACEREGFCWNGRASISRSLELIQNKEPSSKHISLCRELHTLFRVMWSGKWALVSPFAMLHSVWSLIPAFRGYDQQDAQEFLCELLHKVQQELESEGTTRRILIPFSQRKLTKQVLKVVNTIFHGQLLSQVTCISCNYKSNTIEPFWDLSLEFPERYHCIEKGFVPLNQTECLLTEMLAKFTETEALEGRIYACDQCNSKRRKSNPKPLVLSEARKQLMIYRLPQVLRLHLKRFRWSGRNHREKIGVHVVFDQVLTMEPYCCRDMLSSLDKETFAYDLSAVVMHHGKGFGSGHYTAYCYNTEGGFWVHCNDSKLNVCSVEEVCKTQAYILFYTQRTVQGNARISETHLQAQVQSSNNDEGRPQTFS

Compound	target or system	test	test system	setting	how to read	endpoint	value
O=C(O)[C@@H]1C[C@@H](O)CN1		binding, equilibrium dialysis LC-MS		5 µM, thermostabilized A2AR-BRIL construct	reference: no-protein control, direction not given	z-scored log2 fold change	0.167
CCNC(=O)[C@@H]1CCCN1C(=O)[C@H](CCCNC(=N)N)NC(=O)[C@H](CC(C)C)NC(=O)[C@@H](CC(C)C)NC(=O)[C@H](Cc1ccc(O)cc1)NC(=O)[C@H](CO)NC(=O)[C@H](Cc1c[nH]c2ccccc12)NC(=O)[C@H](Cc1c[nH]cn1)NC(=O)[C@@H]1CCC(=O)N1		item: progesterone	healthy premenopausal women	intramuscular, 3.75 mg, ovulation progesterone ≥3 ng/mL		ovulation rate	0%
COc1ccc(C2=N[C@@H](c3ccc(Cl)cc3)[C@@H](c3ccc(Cl)cc3)N2C(=O)N2CCNC(=O)C2)c(OC(C)C)c1		histology	Dmd C3333Y mice, heart	dose not given		fibrotic area	13.8% and 14.4% and 10.8% and 10.2% and 9.5%
O=C(O)/C=C\C(=O)O		binding, equilibrium dialysis LC-MS		5 µM, thermostabilized A2AR-BRIL construct	reference: no-protein control, direction not given	z-scored log2 fold change	0.157
CN(C)C(=O)c1cc2cnc(Nc3ccc(N4CCNCC4)cn3)nc2n1C1CCCC1		RNA-seq GSEA, item: HALLMARK_APICAL_JUNCTION	MB002 tumour	concentration not given, in vivo	reference: vehicle, direction not given	normalized enrichment score	-1.05
COC(=O)CCc1ccc(OCC(O)CNC(C)C)cc1 (stereo not drawn)			healthy male humans	concentration not given, 15 min, baseline before dosing, added: saline		diastolic blood pressure	62.8 mm Hg
OCC(O)CO		ELISA	male Slc25a13 knockout mice, serum	oral in drinking water, 5 % w/v, 2 days		plasma FGF21 level	367 pg/mL and 1380 pg/mL and 595 pg/mL and 1280 pg/mL and 295 pg/mL
C=CCn1c(=O)c2cnc(Nc3ccc(N4CCN(C)CC4)cc3)nc2n1-c1ccc2c(n1)[C@@](O)(CC)CC2			Calu-6 xenograft, BALB/c nude mice	oral, 80 mg/kg once daily x 26, day 21	reference: vehicle	tumour growth inhibition	47.8%
CC1(C)CCC(CN2CCN(c3ccc(C(=O)NS(=O)(=O)c4ccc(NCC5CCOCC5)c([N+](=O)[O-])c4)c(Oc4cnc5[nH]ccc5c4)c3)CC2)=C(c2ccc(Cl)cc2)C1		cell killing	canine lymph node CD3+ T cells, dog 33	24 h		EC50	0.0167 µM
O=C1c2ccncc2C(=O)c2c1[nH]c1ccccc21			female monocrotaline PAH rat	dose not given	reference: vehicle	pulmonary vascular resistance	decreased
O=C(O)Cn1cc2ccccc2n1	USP49 ZnF-UBD domain					Kd	> 1000 µM
C[C@@H](NC(=O)N1C(=O)[C@H](Cc2ccnc(N)c2)[C@H]1C(=O)O)C1CCCCC1			human	iv infusion, 1.0 mg/kg/h, 24 h, unit not given	reference: baseline	aPTT AUEC	205
O=C(O)[C@@H]1CCC(O)=N1		binding, equilibrium dialysis LC-MS		5 µM, thermostabilized A2AR-BRIL construct	reference: no-protein control, direction not given	z-scored log2 fold change	0.276
CO[C@H]1CC[C@H](N2C(=O)CNc3ncc(-c4ccc(C(C)(C)O)nc4)nc32)CC1		flow cytometry	stimulated B cells, human, blood	60 mg single dose, 1.5 h, mean	reference: baseline	pS6RP change from baseline	-67.2%
COc1cc2cc(-c3ccc(CC(=O)Nc4cc(C(C)(C)C(F)(F)F)no4)cn3)cnc2cc1OC		RECIST v1.1	human RET-altered solid tumours	12 75 mg tablets, phase I		objective response rate	17%
C[C@@H](O)CCOC(=O)C[C@@H](C)O		item: C12 acylcarnitine	human, plasma	60 min, log2-transformed values		metabolite level	-3.9 ± 0.98 µmol/L
N[C@@H](CC(=O)O)C(=O)N[C@@H](Cc1ccccc1)C(=O)O		binding, equilibrium dialysis LC-MS		5 µM, thermostabilized A2AR-BRIL construct	reference: no-protein control, direction not given	z-scored log2 fold change	0.097
CC(c1cc2ccccc2s1)N(O)C(N)=O (stereo not drawn)		item: PGF2α	human whole blood	3 µM, added: Escherichia coli		amount	630 ± 423 pg/mL blood
Cn1cc([C@H]2C[C@H]3CSC(N)=N[C@@]3(c3ccc(F)cc3F)CO2)cn1		item: Aβx-40	Mus musculus wild-type, cerebrospinal fluid	subcutaneous, 3 mg/kg, 1 h		Aβ40 level	1.59 ng/mL
Nc1nc2cc(-c3ccc4ncc(C(=O)N5CCOCC5)n4c3)ccc2o1	NLRP3 inflammasome (mouse)		mouse BMDM	10 µM		inhibition	-1.1%
NC(=O)c1ccc[n+]([C@@H]2O[C@H](COP(=O)([O-])OP(=O)(O)OC[C@H]3O[C@@H](n4cnc5c(N)ncnc54)[C@H](OP(=O)(O)O)[C@@H]3O)[C@@H](O)[C@H]2O)c1		binding, equilibrium dialysis LC-MS		5 µM, thermostabilized A2AR-BRIL construct	reference: no-protein control, direction not given	z-scored log2 fold change	-0.111
COc1nc(-c2cc(C)c(N[C@@H](C)c3cc(F)cc(F)c3)nn2)ccc1-n1cnc(C)c1		item: Aβ40	rat Sprague-Dawley male, CSF	oral, 25 mg/kg daily for 9 days, 4 h after dose	reference: vehicle	change in level	66%
O=C(O)CCn1sc2ccccc2c1=O	USP49 ZnF-UBD domain					Kd	> 1000 µM
c1ccc(-c2n[nH]cc2-c2ccnc3ccccc23)nc1		kinase binding, competitor, MIB/MS competition, item: KIN2	Candida albicans cell lysate	100 nM	reference: DMSO	log2 fold change	0.972
O=P(O)(O)C(Cl)(Cl)P(=O)(O)O		immunostaining	mouse, SAH model, meninges	dose not given, day 7	reference: total area	Iba1-positive area	2.86%
O=c1sn(-c2cccc3ccccc23)c(=O)n1Cc1ccccc1	NLRP3 inflammasome (mouse)		mouse BMDM	10 µM		inhibition	37.9%

Compound	target or system	test	test system	setting	how to read	endpoint	value
CC(C)c1ncc(C(=O)N2CCOC3(CCN(Cc4ccc(F)c(CCNC[C@H](O)c5ccc(O)c6[nH]c(=O)sc56)c4)CC3)C2)s1			COPD patients	172 µg single, 24 h, day 1	reference: baseline, placebo-corrected	trough FEV1 change	85 mL
COc1ccccc1[C@H](Cn1c(=O)n(C(C)(C)C(=O)O)c(=O)c2c(C)c(-c3ncco3)sc21)OC1CCOCC1			human	20 mg, post-treatment		blood Triglycerides level	194 ± 39 mg/dL
N#Cc1ccc2c(c1)[C@H]1CCCN(C(=O)c3ccc4[nH]cnc4c3)[C@H]1C2		meal tolerance test	human, Phase II trial	80 mg once daily, day 28, AUC0-2 h, adjusted mean	reference: baseline	insulin AUC change	150 pmol/h/L
NC1(C(=O)N[C@@H](CCO)c2ccc(Cl)cc2)CCN(c2nc[nH]c3nccc2-3)CC1		RECIST v1.1	human mCRPC patients	dose not given, added: enzalutamide		RECIST response rate	11.1%
O=C(O)CNC(=O)Cc1ccccc1			ventricular cardiomyocytes, C57BL/6 mouse	dose not given, 0.096 s		sarcomere length	1.72 µm
N#Cc1ccc2c(-c3ccncc3)c(-c3ccc(F)cc3)nn2c1		kinase binding, competitor, MIB/MS competition, item: RIM11	Candida albicans cell lysate	10 µM	reference: DMSO	log2 fold change	0.2
OC(CCN1CCCCC1)(c1ccccc1)C1CC2C=CC1C2 (stereo not drawn)		resting-state EEG	healthy elderly humans	oral, 4 mg, eyes open, LS mean	reference: baseline	change in EEG Alpha2-power Pz-O2	28.3%
N#Cc1ccn2c(-c3ccncc3)c(-c3ccc(F)cc3)nc2c1		kinase binding, competitor, MIB/MS competition, item: HST7	Candida albicans cell lysate	1 µM	reference: DMSO	log2 fold change	-0.143
CC(C)NCC(O)c1ccc(O)c(O)c1 (stereo not drawn)			ventricular cardiomyocytes, C57BL/6 mouse	dose not given, 0.164 s		sarcomere length	1.53 µm
O=C1C[C@@H](C(=O)O)NC(=O)N1		binding, equilibrium dialysis LC-MS		5 µM, thermostabilized A2AR-BRIL construct	reference: no-protein control, direction not given	z-scored log2 fold change	-0.848
O=CNCc1ccc(O)cc1		ABTS radical		300 µg/mL		radical scavenging	38.4 ± 1.7%
CCN1CCN(Cc2ccc(Nc3ncc(F)c(-c4cc(F)c5nc6n(c5c4)[C@H](C)CCC6)n3)nc2)CC1			human advanced solid tumours	400 mg, phase Ia monotherapy RECIST 1.1		objective response rate	0%
NC(=O)c1cnc2[nH]ccc2c1N[C@@H]1[C@@H]2CC3C[C@H]1C[C@@](O)(C3)C2		total naive T cells, flow cytometry	Japanese humans, peripheral blood	60 mg single dose	reference: baseline	percent change	-2%
NC(=O)NCc1ccc(O)cc1		DPPH radical		300 µg/mL		radical scavenging	9.59 ± 0.71%
Cc1noc(C)c1-c1cc(C(O)(c2ccccn2)c2ccccn2)c2nc(C3CC3)[nH]c2c1		item: HEXIM1 expression	human, peripheral blood	2 mg, day 8, 1599 study		maximum induction	46.5%
COc1ccc(-c2cncc(N[C@@H](C)c3cccc(NC(=O)c4cncc(C)c4)c3)n2)cc1OC		item: rno-miR-340-5p	rat SU5416/hypoxia model, lung	dose not given, unit not given	reference: SU5416/hypoxia vehicle	delta delta Ct	0.54
N[C@@H](CCCCNC(=O)CCCC[C@@H]1SC[C@@H]2NC(=O)N[C@@H]21)C(=O)O		binding, equilibrium dialysis LC-MS		5 µM, thermostabilized A2AR-BRIL construct	reference: no-protein control, direction not given	z-scored log2 fold change	0.376
COc1nnc2ccc(N3CCC(c4ccc(OCCN5CCN(C)C(=O)[C@H]5C)cc4)CC3)nn12			human patients	5 mg twice daily, 2-fold above baseline, monotherapy and combination cohorts		time above HEXIM1 threshold	0.15 h
Cn1cnc(C[C@H](N)C(=O)O)c1		binding, equilibrium dialysis LC-MS		5 µM, thermostabilized A2AR-BRIL construct	reference: no-protein control, direction not given	z-scored log2 fold change	0.216
C[C@H]1O[C@@H](O[C@H]2CC[C@@]3(C)[C@@H](CC[C@]4(C)[C@@H]3C=C[C@]35OC[C@@]6(CCC(C)(C)C[C@H]63)[C@@H](O)C[C@]54C)[C@]2(C)CO)[C@H](O)[C@@H](O[C@@H]2O[C@H](CO)[C@@H](O)[C@H](O)[C@H]2O)[C@H]1O		Western blot, item: Deptor	mice, normal control diet, liver	dose not given, high dose, unit not given	reference: β-actin	protein level	1.32 and 0.995 and 0.651
CN(C)C(=O)Oc1cccc([N+](C)(C)C)c1		neuromuscular block reversal	rat	dose not given, 13.5 (unit not given), added: cisatracurium	reference: T1 twitch	train-of-four ratio	95.1
Cc1c(C)n(Cc2cccc(OC(C)(C)C(=O)O)c2)c2ccc(C(=O)N[C@@H](C)c3ccc(C(C)(C)C)cc3)cc12			C57BL/6 mouse, diet-induced obesity, proximal tibia	dose not given		tissue volume	4.06 ± 0.312 mm3
CCOC(=O)NCc1ccc(O)cc1		DPPH radical		300 µg/mL		radical scavenging	7.33 ± 1.57%
C[C@H](Oc1ccc(Br)cc1-c1ccon1)C(=O)O		peak grip force, handgrip dynamometry	healthy human	800 mg, SAD		difference from placebo	-1.29 kg
N#Cc1ccc2c(c1)[C@H]1CCCN(C(=O)c3ccc4[nH]cnc4c3)[C@H]1C2			T2DM patients with overweight or obesity, urine	oral, 240 mg, day 1, 0-24 h, multiple dosing, adjusted geometric mean	reference: baseline day -1, -24-0 h	total urinary corticosteroid excretion	174%

Repeated from above:
Compound	target or system	test	test system	setting	how to read	endpoint	value
c1ccc(-c2n[nH]cc2-c2ccnc3ccccc23)nc1		kinase binding, competitor, MIB/MS competition, item: KIN2	Candida albicans cell lysate	100 nM	reference: DMSO	log2 fold change	0.972
O=P(O)(O)C(Cl)(Cl)P(=O)(O)O		immunostaining	mouse, SAH model, meninges	dose not given, day 7	reference: total area	Iba1-positive area	2.86%
O=c1sn(-c2cccc3ccccc23)c(=O)n1Cc1ccccc1	NLRP3 inflammasome (mouse)		mouse BMDM	10 µM		inhibition	37.9%
CC(C)c1ncc(C(=O)N2CCOC3(CCN(Cc4ccc(F)c(CCNC[C@H](O)c5ccc(O)c6[nH]c(=O)sc56)c4)CC3)C2)s1			COPD patients	172 µg single, 24 h, day 1	reference: baseline, placebo-corrected	trough FEV1 change	85 mL
COc1ccccc1[C@H](Cn1c(=O)n(C(C)(C)C(=O)O)c(=O)c2c(C)c(-c3ncco3)sc21)OC1CCOCC1			human	20 mg, post-treatment		blood Triglycerides level	194 ± 39 mg/dL
N#Cc1ccc2c(c1)[C@H]1CCCN(C(=O)c3ccc4[nH]cnc4c3)[C@H]1C2		meal tolerance test	human, Phase II trial	80 mg once daily, day 28, AUC0-2 h, adjusted mean	reference: baseline	insulin AUC change	150 pmol/h/L
NC1(C(=O)N[C@@H](CCO)c2ccc(Cl)cc2)CCN(c2nc[nH]c3nccc2-3)CC1		RECIST v1.1	human mCRPC patients	dose not given, added: enzalutamide		RECIST response rate	11.1%
O=C(O)CNC(=O)Cc1ccccc1			ventricular cardiomyocytes, C57BL/6 mouse	dose not given, 0.096 s		sarcomere length	1.72 µm
